Results of several laboratories.
Lines come from different studies, so protocols differ. Values joined by “and” are separate records of one study, mostly repeats; a detail may differ. Numbers after ± are the reported error.

Compound | test | system | setting | scale | quantity | result
COC(=O)c1cc(O)c(O)c(O)c1 |  | Gunn rat liver microsomes | glucuronidation, metabolite M2 |  | Hill coefficient | 0.9 ± 0.05
CC1(C)CCC2(CC1)N[C@@H](C(=O)N[C@@H]1CC[C@@H](C(N)=O)OC1)[C@H](c1ccnc(Cl)c1F)[C@]21C(=O)Nc2cc(Cl)ccc21 |  | human, solid tumours | 120 mg/day, RECIST | relative to: patients | progressive disease | 33.3%
CCOCc1nc(O)c(-c2nnc(Cc3ccc(Cl)cn3)o2)c(O)c1-c1c(OC)cccc1OC |  | anaesthetised rat | intravenous infusion, 100 µg/kg/min for 15 min | relative to: baseline | heart rate change | 3.2 ± 0.9%
CCc1c(C)nc(-c2ccc(Cl)s2)nc1Nc1ccc(CC(=O)O)cc1 |  | C57BL/6J mice, MCD diet | intraperitoneal, 0.3 mg/kg daily, MCD diet 6 weeks, dosed last two | relative to: vehicle | serum ALP | decreased
COc1cc(Nc2ncc3c(n2)-c2ccc(Cl)cc2C(c2c(F)cccc2OC)=NC3)ccc1C(=O)O |  | mouse, NB-1643 neuroblastoma xenograft | 2.6 mg/kg | direction not given | median response score | 0
C1=C/COCc2cc(ccc2OCCN2CCCC2)Nc2nccc(n2)-c2cccc(c2)COC/1 |  | BALB/c mice rhEPO-induced polycythemia | 120 mg/kg |  | reticulocytes | 10.9% and 14.2% and 13.1% and 13.3% and 11.3% and 14.1%
C[C@H]1O[C@@H](O[C@H]2CC[C@@]3(C)[C@@H](CC[C@]4(C)[C@@H]3C=C[C@]35OC[C@@]6(CCC(C)(C)C[C@H]63)[C@@H](O)C[C@]54C)[C@]2(C)CO)[C@H](O)[C@@H](O[C@@H]2O[C@H](CO)[C@@H](O)[C@H](O)[C@H]2O)[C@H]1O |  | chronic-plus-binge ethanol-fed mice, liver | dose not given, low dose | relative to: area | Oil Red O area | 10.2% and 23.4% and 12.7% and 20.4% and 31.2%
CN(C)C(=O)Oc1cccc([N+](C)(C)C)c1 |  | rat cisatracurium-induced neuromuscular block | 0.0125 mg/kg |  | twitch response | 56.7% and 34.2% and 11.2% and 23.5% and 23%
N#Cc1ccc2c(-c3ccncc3)c(-c3ccc(F)cc3)nn2c1 | kinase binding, competitor, MIB/MS competition, item: PBS2 | Candida albicans cell lysate | 100 nM | relative to: DMSO | log2 fold change | 0.136
O=C(O)CCc1nccc2c3ccccc3n(Cc3ccc(Br)c4ccccc34)c12 |  | mouse, acute hyperuricaemia model | oral, 2 mg/kg |  | decrease in serum uric acid | 74.5%
COc1ccc2c(c1)CC[C@@H]1[C@@H]2CC[C@]2(C)[C@@H](NCCCCCCN3C(=O)C=CC3=O)CC[C@@H]12 | immunostaining | humanized mouse, SAH model, meningeal F4/80+ macrophages | dose not given |  | p-PKC level | 9.76 MFI and 8.11 MFI and 6.2 MFI
O=C(OC(C(F)(F)F)C(F)(F)F)N1CCN(Cc2cccc(Oc3ccccc3)c2)CC1 | PET blocking study | rhesus monkey, brain Pons | 0.3 mg/kg, compound pretreatment, together with: [18F]T-401 tracer |  | k3 | 1.79 min⁻¹
Cc1cc(-c2nnc(N)nc2-c2ccc(F)cc2)cc(Cl)n1 | NanoString, item: T.helper.cells.Prat.IO signature | human mCRPC, peripheral blood | dose not given, 2 or 4 weeks | relative to: baseline, direction not given | GSVA score change | -0.244
C[C@H]1C[C@H]2CSC(N)=N[C@@]2(c2nc(NC(=O)c3ccc(OC(F)F)cn3)cs2)CO1 | item: total Aβ | healthy adults, plasma | 15 mg once daily, day 14 | relative to: placebo | percent change from baseline | -45%
CCN(Cc1nc2c(N)nc3cc(-c4cc[nH]n4)ccc3c2[nH]1)C(C)=O | immunohistochemistry, item: MPO+ TANs | patients with advanced solid tumours, non-injected tumour lesions | dose not given, monotherapy |  | patients with increased cells | 27%
CC(C)[C@H](C(=O)Nc1ccc(C(=O)NO)cc1)c1ccccc1 | MRI volumetry | human, right IAC schwannoma | dose not given, day 1512 post-treatment |  | tumour volume | 0.0302 cm³
C[C@H](NC(=O)c1c(C(F)F)nn(C)c1Oc1cccc(C(F)(F)F)c1)c1ccc(C(=O)O)cc1 | irRECIST | human, advanced tumours | 750 mg | best overall response | partial response | 0%
O=C(O)CNC(=O)C(CS)Cc1ccccc1 (stereo not shown) | inhibitor, LC-MS/MS, item: Met- or Leu-enkephalin | mouse striatal brain slices | 10 µM, 20 min, together with: 50 mM KCl |  | extracellular enkephalin concentration | 377 pM and 886 pM and 567 pM and 1640 pM and 524 pM and 1090 pM and 110 pM and 497 pM
COc1cc(F)c([C@@H]2CNC(=O)[C@H]2NC(=O)Nc2ccccc2)c(F)c1 | terminal haemodynamics | rat, permanent coronary occlusion MI | 1 mg/kg, 1008 h, 6 weeks post-MI |  | heart rate | 310 ± 15 bpm
NC(=O)c1cnc2[nH]ccc2c1N[C@@H]1[C@@H]2CC3C[C@H]1C[C@@](O)(C3)C2 | CD8+ central memory T cells, flow cytometry | Japanese humans, peripheral blood | 60 mg single dose | relative to: baseline | percent change | 0.45%
CC(=O)NCC(=O)NCC(=O)N[C@H](C(=O)N[C@@H](Cc1ccc(O)cc1)C(=O)N[C@@H](CO)C(=O)N[C@H]1CSSC[C@@H](C(=O)N[C@@H](CCCNC(=N)N)C(=O)N2CCC[C@H]2C(=O)N[C@@H](CCC(N)=O)C(=O)N[C@@H](CCCNC(=N)N)C(=O)NCC(=O)NCCC(=O)N[C@@H](CCCCNC(=O)CN(CC(=O)NCCCC[C@H](NC(=O)CCNC(=O)CNC(=O)[C@H](CCCNC(=N)N)NC(=O)[C@H](CCC(N)=O)NC(=O)[C@@H]2CCCN2C(=O)[C@H](CCCNC(=N)N)NC(=O)[C@@H]2CSSC[C@H](NC(=O)[C@H](CO)NC(=O)[C@H](Cc3ccc(O)cc3)NC(=O)[C@@H](NC(=O)CNC(=O)CNC(C)=O)[C@@H](C)O)C(=O)N[C@@H](Cc3c[nH]cn3)C(=O)N[C@@H](Cc3ccccc3)C(=O)NCC(=O)N[C@@H](C)C(=O)N[C@@H](CC(C)C)C(=O)N[C@@H]([C@@H](C)O)C(=O)N[C@@H](Cc3c[nH]c4ccccc34)C(=O)N[C@@H](C(C)C)C(=O)N2)C(N)=O)C(=O)CCN)C(N)=O)NC(=O)[C@H](C(C)C)NC(=O)[C@H](Cc2c[nH]c3ccccc23)NC(=O)[C@H]([C@@H](C)O)NC(=O)[C@H](CC(C)C)NC(=O)[C@H](C)NC(=O)CNC(=O)[C@H](Cc2ccccc2)NC(=O)[C@H](Cc2c[nH]cn2)NC1=O)[C@@H](C)O |  | healthy BALB/c mice | subcutaneous, 0.08 mg/kg, 14 d, single dose |  | reticulocytes | 4.6%
Cc1noc(C)c1-c1cc(C(O)(c2ccccn2)c2ccccn2)c2nc(C3CC3)[nH]c2c1 | item: CCR2 expression | human, peripheral blood | 3 mg, day 1, 1604 study, together with: enzalutamide |  | maximum inhibition | 35%
Cc1cnc(N2CC3(CCOCC3)C2)c(C(=O)Nc2ccc(C(=O)N3CCc4cc(C(=O)Nc5c(C)cccc5F)sc4-c4ccccc43)cc2)c1 | item: Fibrinogen | human RSV infection, plasma | dose not given, AUC, ITT-IS population | relative to: placebo | inhibition | 59%

Compound | test | system | setting | scale | quantity | result
CN[C@@H]1COc2c(S(=O)(=O)NC(=O)Nc3c4c(cc5c3CCC5)CCC4)cnn2C1 | item: IL-18 | human participants, whole blood ex vivo | 300 mg twice daily, multiple doses, 144 h, IL-18, circulating, adjusted for, together with: LPS/ATP | relative to: baseline | inhibition | 93.4%
N#Cc1ccn2c(-c3ccncc3)c(-c3ccc(F)cc3)nc2c1 | kinase binding, competitor, MIB/MS competition, item: MKK2 | Candida albicans cell lysate | 100 nM | relative to: DMSO | log2 fold change | -0.146
Cc1ccc([C@@H]2O[C@H](CO)[C@@H](O)[C@H](O)[C@H]2O)cc1Cc1ccc(-c2ccc(F)cc2)s1 |  | Japanese type 2 diabetes patients | 200 mg, day 2 | relative to: day 1 | change in fasting serum insulin | -1.5 µU/mL
Cn1cc(Nc2nccc(-c3ccc4c(c3)CN(C3COC3)CC[C@H]4NC(=O)c3cn(C(C)(C)C)nn3)n2)cn1 | item: Toll-like receptor signaling | splenic B cells, mice | 30 mg/kg, IgD-activated in vivo | relative to: vehicle, direction not given | pathway activation z-score | 2.71
O=C(COc1ccc(Cl)cc1)NC12CC(c3nnc([C@H]4C[C@@H](OC(F)(F)F)C4)o3)(C1)C2 | item: CHAC1 | PBMC ex vivo stimulated, human ALS patients | 100 mg, D21 predose | relative to: baseline | mRNA level change | -63.4%
CCN1CCN(Cc2ccc(Nc3ncc(F)c(-c4cc(F)c5nc6n(c5c4)[C@H](C)CCC6)n3)nc2)CC1 |  | human advanced solid tumours | 500 mg, phase Ia monotherapy RECIST 1.1 |  | progressive disease | 16.7%
Cc1nc(N(Cc2ccccc2)c2ccc3c(c2)/C(=C/c2ccccc2)C(=O)N3Cc2ccccc2)c2ccccc2n1 (mixture of isomers) |  | mouse LLC syngeneic tumour | ip, 15 mg/kg, 14 days | relative to: vehicle | tumour weight reduction | ~61.1%
CC(C)c1c(C(=O)Nc2ccccc2)c(-c2ccccc2)c(-c2ccc(F)cc2)n1CC[C@@H](O)C[C@@H](O)CC(=O)O |  | cynomolgus monkey, male, serum | 40 mg/kg or 25 mg/kg, day 86, 2064 h |  | total cholesterol | 92.9 mg/dL
COc1ncc(-c2nc3c(n2C(C)C)[C@H](c2ccc(Cl)cc2)N(c2cc(Cl)cn(C)c2=O)C3=O)c(OC)n1 | antileukemic activity, item: treatment failure, indeterminate cause | human, acute myeloid leukaemia | 250 mg, high-dose, RDE |  | best overall response | 26.7%
C[C@H](Oc1ccc(Br)cc1-c1ccon1)C(=O)O | first response latency | human, tibialis anterior muscle | 400 mg, 30 Hz, single ascending dose |  | difference from placebo | 0%
CCNc1nc2c(c(N3CC(=O)Nc4cc(OC)ccc43)n1)CCC2 |  | mice, A-375/TxR xenograft | intravenous, 4 mg/kg twice weekly, 3 weeks | relative to: vehicle | tumour weight decrease | 59.9%
COc1ccc(F)cc1C(=O)NCc1ccc(-c2nn([C@@H](C)C(F)(F)F)c(N)c2C(N)=O)cc1 |  | mouse OCI-Ly10 xenograft | 10 mg/kg twice daily, 840 h, 35 days after withdrawal |  | tumour growth inhibition | 83%
CSCCNc1nc(SCCC(F)(F)F)nc2c1ncn2[C@@H]1O[C@H](COP(=O)(O)OP(=O)(O)C(Cl)(Cl)P(=O)(O)O)[C@@H](O)[C@H]1O | platelet aggregation, light transmission aggregometry | human patients, platelet-rich plasma | dose not given, 2 h, aggregation above 46%, together with: ADP 5 µM |  | patients with high residual reactivity | 55%
CC(c1cc2ccccc2s1)N(O)C(N)=O (stereo not shown) |  | human blood | 3 µM, together with: A23187 |  | 15-HETE level | 228 ± 90 pg/mL
CC(C)NCC(O)c1ccc(O)c(O)c1 (stereo not shown) |  | ventricular cardiomyocytes, C57BL/6 mouse | dose not given, 0.672 s |  | sarcomere length | 1.72 µm
COc1ccccc1[C@H](Cn1c(=O)n(C(C)(C)C(=O)O)c(=O)c2c(C)c(-c3ncco3)sc21)OC1CCOCC1 |  | human | 20 mg, post-treatment |  | blood ketones | 0.13 ± 0.05 mmol/L
OC(CCN1CCCCC1)(c1ccccc1)C1CC2C=CC1C2 (stereo not shown) | resting-state EEG | healthy elderly humans | oral, 2 mg, eyes closed, LS mean | relative to: baseline | delta power change, EEG, in Pz-O1 | 14.3%
Cc1n[nH]c2ccc(-c3cc(OC[C@@H](N)Cc4ccccc4)cnc3-c3ccoc3)cc12 | kinase binding, competitor, MIB/MS competition, item: RIM8 | Candida albicans cell lysate | 100 nM | relative to: DMSO | log2 fold change | -0.206
CO[C@H]1CC[C@H](N2C(=O)CNc3ncc(-c4ccc(C(C)(C)O)nc4)nc32)CC1 | flow cytometry | stimulated B cells, human, blood | 45 mg single dose, 1.5 h, median | relative to: baseline | pS6RP change from baseline | -80.4%
O=C(O)CNC(=O)Cc1ccccc1 |  | ventricular cardiomyocytes, C57BL/6 mouse | dose not given, 0.66 s |  | sarcomere length | 1.72 µm
CN(C(=O)n1cnc(-c2ccc[n+]([O-])c2)c1)C1CCCCC1 | item: PEA | human, plasma | 20 mg single dose |  | AUC(0-t) | 378 ng·h/mL
c1ccc(-c2n[nH]cc2-c2ccnc3ccccc23)nc1 | kinase binding, competitor, MIB/MS competition, item: PKH2 | Candida albicans cell lysate | 1 µM | relative to: DMSO | log2 fold change | 1.18
C[C@@H]1COCCN1c1cc([C@]2(O)C[C@H]3CC[C@@H](C2)O3)c2cnn(-c3cc[nH]n3)c2n1 |  | ATM-deficient gastric cancer PDX mice | 5 mg/kg once daily for 7 days, day 42 |  | tumour growth inhibition | 107 ± 1.4%
